Published values from different studies.
Every numbered part comes from another study and shows a few of its results, in no order.

Study 1
Target: Interferon regulatory factor 5, full length, phosphomimetic (IRF5, Homo sapiens, UniProt Q13568-2, residues 1-514, S451D/S453D/S456D/S462D)
Method: protein-binding microarray
Form: double-stranded DNA, one strand shown
Medium: in vitro
Tested at: 940 nM top
Notes: 60-bp whole probe
With: salmon DNA 0.4 mg/ml
Baseline: random background probes
Direction: higher = stronger binding
Constant ends, left off below: GCCTAGCAC … GTCTTGATTCGCTTGACGCTGCTG
Sequence	fitted relative affinity
GACGGTTTCCTTTCCCTGGCGTGCTAG	2.59 z-score
GACGGTATCGACACCGGGGACGTGCTA	4.2 z-score
TTAGGTTTCGGACTCGGTTAGTGCTAG	7.44 z-score
AACGAACTGAGTCTCGAGACGTGCTAG	0.862 z-score
TCATCATTGCCTATTTTTCAGTGCTAG	1.17 z-score
ATCGTAAGCAAAAATGATTGGTGCTAG	-0.118 z-score
GACGGACTTGGGTTTCGGGACGTGCTA	2.19 z-score
CCACCACCAACACCAGTCATGTGCTAG	0.662 z-score
TCATATTTAGAACTTCTCACTGTGCTA	0.423 z-score
ACTAGTTTCTTTTCTTTTCTGTGCTAG	4.65 z-score
GACGATCTCCTTATCCTGACGTGCTAG	0.646 z-score
GACGAACTGCGTCTCGAGACGTGCTAG	-0.211 z-score
CTAGGACTGGGGTATCGGTTAGTGCTA	2.58 z-score
TTAGGACTGCTTCTCCCTTAGTGCTAG	0.182 z-score
TTAGGTCCCCTACTGCTTTAGTGCTAG	-0.0908 z-score
TTAGGACTGATTCTCCTTTAGTGCTAG	-0.169 z-score
GACGGTCTACTTCTCCTGACGTGCTAG	0.331 z-score
GAGGATTTCGGGACTGGAGACGTGCTA	-0.146 z-score
TCAATTTTCGTTTTGTGACTGTGCTAG	1.67 z-score
GATGATATCGGGACTGGAGACGTGCTA	-0.213 z-score
GAGATCATCCGTTTCTTCTAGTGCTAG	0.395 z-score
TTAGGTATCGGGTTTCGGCTAGTGCTA	6.31 z-score
TCAAGTCTGAGATCCAGACTGTGCTAG	-0.893 z-score
TCACTTTTCGCTTTCTTACTGTGCTAG	3.16 z-score
TCACTTTTGCTTGTTCTTACTGTGCTA	1.45 z-score

Study 2
Target: RING finger protein unkempt homolog, zinc fingers 1-6, GST-SBP tag (UNK, Homo sapiens, UniProt Q9C0B0, residues 30-357)
UniProt Q9C0B0, sequence (30-357, looked up): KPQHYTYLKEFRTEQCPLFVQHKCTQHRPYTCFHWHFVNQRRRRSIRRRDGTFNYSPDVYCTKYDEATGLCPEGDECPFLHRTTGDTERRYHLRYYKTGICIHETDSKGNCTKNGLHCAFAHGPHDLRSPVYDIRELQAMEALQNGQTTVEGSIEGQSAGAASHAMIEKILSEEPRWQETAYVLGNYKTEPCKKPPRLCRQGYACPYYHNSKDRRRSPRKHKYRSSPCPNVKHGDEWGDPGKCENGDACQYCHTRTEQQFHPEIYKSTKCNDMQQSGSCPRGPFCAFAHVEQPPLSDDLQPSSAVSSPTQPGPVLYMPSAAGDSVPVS
Method: RNA Bind-n-Seq
Form: RNA
Medium: in vitro
Tested at: not given
Notes: RNA with constant flanks, ends assumed
Baseline: input RNA pool
Direction: higher = stronger binding
Constant ends, left off below: GGGAGUUCUACAGUCCGACGAUC … CAACAGAGGAUUGAGCAUCA
Sequence	bound/input enrichment [ratio]
AGUAAGCGGGACUUUAUGCUGAUCACAAACAGAUCCCUGAAAGAGGAAGAUGGAGAAGAAACCGUUACCUAUGACCAUCUGUGUAAGAACUGUCAUCAUGUAGUAGCCAGACACGAGUAU	0.817
GGUGAUGAGGCAAGUGAAUUACGAUCAAUGUUAGAAGUUAACUACCCUAUGGAAAAUGGCACCGUACGAAAUUGGGAUGACAUGAAACACCUGUGGGACUACACAUUUGGACCAGAGAAA	0.384
AUUCCGAUUAUGGACACCGGUGAAAACCCAGAGGUUCCCUUCCCCCGGGACAUGAUUGACUCCGAGGCCAAUUUUGAGAAGAUUGAAAAUGAACUGAAGGAAAUCAACACAAACCAGGAA	0.11
CUAUGUAAAACGACAGCCUUACAUAGUUUCCUGUCAACACAAAUUUAGGAUAUAAUACAUUUCCGAAAUUUAUUAUUUUUCAAUUAUUUUUGGUUUUUUUACUACUUACCUUGUAAAAAU	3.97
GAACGAGGACGCCUGAAGGAAGAGCUGGAAGAGGCUCGGGACAUAGCCCGGCGGCGCUCUUCCGGGAAUAUCAAGUUUAUUGGAGAGUUGUUCAAACUGAAGAUGUUAACAGAGGCAAUA	0.508
UUUUAAACUUCUUUUUUUUAAUUUAAUUUUUUCCUUUCAGGGGUAAAGUUUGCUUUACCAAACCGUGAUUGUAACAGAUUGAUCUGUUUUGGAUGUUGCUAUAGUGACAUGCAGUUCUAU	4.05
CCUUUUUGUUACUUGACACUUCCAUUGCCCAUGAAAAAAGAACGCACCUUGGAAGUUUACUCCGUCCGAAUGGAUCCACUUACCAAACCUAUGCAGUACAAAGUGGUUGUCCCCAAAAUU	0.154
CCAUUUAAAGACAGAAUCAGCUGGGCUGGAGACCUUGACAAGAAAGAUGCAUCAAUCAACACCGAAAAUAUGCAGUUUAUACACAAUGGCACCUAUAUCUGUGAUGUCAAAAACCCUCCU	0.145
GUGCAGACUGCCUCAAAACAAGUUGAUGGUGAUUAUGUUGUGUCUGAAUGGAGUGAAAUUACCGAAUUCUGCACCGCAGACUAUUCAAAAGUUCAUCUAACACAAUUGUUGGAGAAGGCU	0.184
UACUUAAAUGAAAUAAAACCUCCCAUCAUACACUAUGACCUCAAACCAGGUAAUAUCCUUUCCGUAAAUGGUACAGCAUGUGGAGAGAUAAAAAUUACAGAUUUUGGUCUUUCCAAGAUC	0.199
UUCAGGACUUUUCUUGGGGUUUCAGAAUGGGUUUAUAUGAUUUUCUUUAUUAUUUUUUGGCCGUUUUAUUUAUUCUAUCAGUCUUUUUAACAAAUGUUUAUUGCUGCACCUCCUCCCCAG	30.4

Study 3
Target: Histone acetyltransferase KAT6A, both winged helices, GST fusion (KAT6A, Homo sapiens, UniProt Q92794, residues 1-181)
Method: protein binding microarray
Form: double-stranded DNA, one strand shown
Medium: in vitro
Tested at: not given
Notes: 8-mer, flanks averaged, mean of 2 arrays, mostly near background
Baseline: not given
Direction: higher = stronger binding
Construct (chain): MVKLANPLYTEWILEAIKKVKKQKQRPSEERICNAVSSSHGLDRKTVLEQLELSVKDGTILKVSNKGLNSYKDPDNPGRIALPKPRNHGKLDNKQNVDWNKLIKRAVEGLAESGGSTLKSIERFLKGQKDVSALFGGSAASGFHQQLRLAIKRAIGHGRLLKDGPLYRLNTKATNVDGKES
Sequence	E-score
ATGTTGTA	-0.0664
GGATGTTA	0.0497
CTTGCCAC	-0.0838
GATCAAGC	0.0624
ACGACCCC	-0.0281
CCGAGGCC	0.209
AACAGAGT	0.0263
CCTACAAA	-0.0479
GCGCTCTA	0.25
AAAGATGT	-0.116
CACGCTGG	-0.0607
AACCCGAG	0.188
GGCTATAC	0.165
GTCGGAGA	0.127
CGACGGGA	0.332
ACTGGAAA	-0.144
AACCTCCT	-0.198
ATGTAGTA	-0.0599

Study 4
Target: TAR DNA-binding protein 43, full length, His tag (TARDBP, Homo sapiens, UniProt Q13148, residues 1-414)
Method: RNA Bind-n-Seq
Form: RNA
Medium: in vitro
Tested at: 20 nM
Notes: 6-mer, flanks averaged, single round
With: 150 mM LiCl
Baseline: input library
Direction: higher = stronger binding
Sequence	6-mer enrichment (R)
GUAGCU	0.972
CUCGAC	0.799
GGUAAG	1.1
GGCAUU	0.932
UGUGAA	1.3
UCAAUU	0.942
AGGCAA	0.863
CCGAGA	0.991
UCUCGA	0.786
GGUAGG	1.22
UUGAAU	1.06
ACUUUC	0.891
CUUCAG	0.832
UGCUCG	0.878
UCGGGG	1.09
AUACUU	0.891
ACUCGG	0.847
AGGAAA	0.844

Study 5
Target: RNA binding protein fox-1 homolog 2, RRM domain, GST-SBP tag (RBFOX2, Homo sapiens, UniProt O43251-10, residues 100-194)
Method: RNA Bind-n-Seq
Form: RNA
Medium: in vitro
Tested at: 365 nM
Notes: natural RNA segment, single round, ends assumed
Baseline: no-protein control
Direction: higher = stronger binding
Constant ends, left off below: GGGAGUUCUACAGUCCGACGAUC … UGGAAUUCUCGGGUGCCAA
Target sequence (chain): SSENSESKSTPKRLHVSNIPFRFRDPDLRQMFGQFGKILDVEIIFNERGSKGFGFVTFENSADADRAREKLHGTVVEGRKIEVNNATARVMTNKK
Sequence	RBNS enrichment (R)
GUGCUGAGCACCUGGUAUUGAGGUACAGAGGAGGGCUCCGCCUGCAGGCACUGUGGCCGCUGAGCUGCGUGUUCCCAGCUGCCUCUGUUGCGGACAGCCCGCUCCACUCU	0.437
UUUUAACUUCGUGUUCUGUAUCUCCUCAGCCAUGUAUCUUAAAUAUAUUUUGUCAUCAUAAUCUUUAUGGUGGGGGCAGACUUUGCACUUACUGCAGUGCAACACUUGCA	1.08
AUUGUUACAAAUUGUAGUGCCUGAAAACACUCUUAAGCUGAUUGUCUUAACAAAAUGAAAGUUCUCCAAAGACAAAACAGAACAAUUAUUAUAACAAAAUAAUUAUGGUU	0.445
AUUUUAUUUGAAUUGGAAUAUUGUUUUUCUAGAGGACAUUCAUAUCUGCACUAUUAUCUGAUGACAUGUUGGUAAUUUUAAAGACUGCAAGGCAGUUUAGAGAAUGAAGU	0.833
GUGUAACACACUGAUGGUUUUAAUGUAUCUUUUCCACUUAUUAUAGUUAUAUUCCUACAAUACAAUUUUAAAAUUGUCUUUUUAUAUUAUAUUUAUGCUUCUGUGUCAUG	1.52
ACACUACAGGAAUAUGUAAUUGUUUCUUGCAGAAGUCUUAAGUCCACCCAAUAAUAAGAUCAGAAGAUAUUUAAUUCUUUUCACAUUUUAUUUAUUUAAAGUGGAAAUUC	0.391
CCGCCACCCCCGCCGUGGGGCUCCGGAGGGGACCCAGCUCCUCUGAGCCAUACCGACCAUCGUCCAGCCCUCCUACGCAGAUGCUGUCACUGGCAGAGCACAGCCCACGG	0.342
AAUAAAUAUUUGAAAUGCUUCUGAUUUUUCAUUUUCAUUUAAAAACAUUAAAUUAAAUGUAAUGAGACCAAUUUGUGGUUUAUAUUAUGGAAAAAGAGGAGAAAAUUAUA	0.817
CCGAGUGGCUCCUGAAUUUAAGUCUGGGACGACAUCUUUUAUUUUUACAUGAAUCUUUAAACAAUUCUGUGAGCAAAGUUUGUAGCUGCUGGAUUAUUGUCUGUCUUUAU	0.928
UUCUGUGAUCUGCCCUGAUUAAGAUGAAUUGUGAAAUUUACAUCAAGCAAUUAUCAAAGCGGGCUGGGUCCCAUCAGAACGACCCACAUCUUUCUGUGGGUGUGAAUGUC	0.278
UGCGACUUCUCAGGCAGGUGAGAGGGGUAGUCCUUACACUGUCUAGCAUAAACGCCUUCCGGAAGGACCUGCAGCUCCAGAGACCACCUCCUGAGCACCAAGACCUCUUC	0.243
GUGAUUUACAGAAAUAAAAUCCCAGUGUCCACUCAAUGCUGGUCUGACUCAGAUCCAGUUGGGUGGUUGGAGUGCUUCCCCAAAUAACCACUUAUUUUUUAAAGCGUCAU	0.411

Repeated from above (study 4):
Sequence	6-mer enrichment (R)
GGUAAG	1.1
CUUCAG	0.832
CUCGAC	0.799
UCUCGA	0.786
ACUCGG	0.847
GGCAUU	0.932
UUGAAU	1.06
UGCUCG	0.878
AUACUU	0.891
AGGAAA	0.844
ACUUUC	0.891
GUAGCU	0.972
